Experimental data collected from several papers.
A part holds a random share of what one study measured.

Series 1
Target: Prothrombin, mature alpha-thrombin (F2, Homo sapiens, UniProt P00734)
Method: aptamer microarray, sandwich
Form: DNA with 2'F-ANA
Medium: in vitro
Tested at: 200 nM
Notes: whole 15-mer aptamer, many near background
Added: Cy3 exosite-II aptamer, 400 nM
Direction: higher = stronger binding
Strand: GGTTGGTGTGGTTGG
Modification | mean fluorescence intensity
2'F-ANA at 2 3 4 5 7 8 11 14 | 56.2 a.u.
2'F-ANA at 4 7 11 12 14 15 | 112 a.u.
2'F-ANA at 2 3 4 6 9 11 13 14 | 182 a.u.
2'F-ANA at 5 7 8 9 10 11 12 14 | 65.5 a.u.
2'F-ANA at 1 3 5 8 9 10 13 14 15 | 49.1 a.u.
2'F-ANA at 2 4 6 7 8 11 12 | 545 a.u.
2'F-ANA at 1 2 3 4 5 6 7 8 11 12 14 15 | 47.5 a.u.
2'F-ANA at 1 2 3 8 10 11 12 13 14 15 | 300 a.u.
2'F-ANA at 1 4 5 6 8 10 11 12 14 15 | 50.4 a.u.
2'F-ANA at 1 2 3 7 9 12 14 15 | 89.3 a.u.
2'F-ANA at 2 4 5 6 8 10 11 12 | 51.8 a.u.
2'F-ANA at 1 3 6 8 10 11 12 13 14 | 61.2 a.u.
2'F-ANA at 1 3 5 6 7 14 | 46.6 a.u.
2'F-ANA at 2 4 12 14 | 198 a.u.
2'F-ANA at 1 2 4 5 7 8 9 10 12 13 15 | 50.4 a.u.
2'F-ANA at 1 3 4 7 8 12 13 15 | 419 a.u.
2'F-ANA at 1 3 7 9 11 13 | 238 a.u.
2'F-ANA at 4 5 6 8 13 14 | 43.8 a.u.
2'F-ANA at 6 7 8 13 14 15 | 205 a.u.
2'F-ANA at 2 3 4 5 6 8 9 12 15 | 176 a.u.
2'F-ANA at 3 4 6 8 11 12 13 | 607 a.u.
2'F-ANA at 1 2 9 11 12 | 342 a.u.
2'F-ANA at 1 2 3 5 6 7 12 13 14 15 | 320 a.u.
2'F-ANA at 1 3 7 9 11 12 13 | 377 a.u.

Series 2
Target: Ras GTPase-activating protein-binding protein 1, RRM domain (G3BP1, Homo sapiens, UniProt Q13283)
Sequence of UniProt Q13283 (whole entry, looked up): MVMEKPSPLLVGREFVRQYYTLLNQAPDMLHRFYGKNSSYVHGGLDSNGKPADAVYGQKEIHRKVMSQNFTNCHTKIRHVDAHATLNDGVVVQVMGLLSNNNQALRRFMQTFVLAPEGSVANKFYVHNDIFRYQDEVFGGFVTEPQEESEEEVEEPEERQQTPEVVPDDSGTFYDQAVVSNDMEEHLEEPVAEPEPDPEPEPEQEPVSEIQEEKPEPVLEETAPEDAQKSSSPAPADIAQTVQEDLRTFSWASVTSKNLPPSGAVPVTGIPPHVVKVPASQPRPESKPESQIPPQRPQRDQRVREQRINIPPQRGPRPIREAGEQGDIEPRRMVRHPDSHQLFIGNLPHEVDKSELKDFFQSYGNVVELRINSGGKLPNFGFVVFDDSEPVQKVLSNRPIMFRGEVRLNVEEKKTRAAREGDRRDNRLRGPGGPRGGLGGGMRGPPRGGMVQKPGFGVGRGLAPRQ
Method: RNA Bind-n-Seq
Form: RNA
Medium: in vitro
Tested at: 1 µM
Notes: whole 134-nt RNA, ends assumed
Added: 150 mM KCl
Reference: input library
Direction: higher = stronger binding
Constant ends, left off below: GGGAGUUCUACAGUCCGACGAUC … UGGAAUUCUCGGGUGUCAAGG
Strand | log2 enrichment
UUAGGUGGCUCCAGGAUGUAUUUAACGUGCCCUUGGUCAUCCAGAUGACGGAUGACGAGAAGUAUCUGUGGAAGGACCUGACCCUGGACC | -0.403
UGGCCCUGGUGGCAUGCGGCGAGGAAGAGGUGGCCUCAUGGAUCGUGGUGGUCCCGGUGGAAUGUUCAGAGGUGGCCGUGGUGGAGACAG | 0.977
CCUCAAGUCCUGUGCUACACAUCGUAUGUACCGAAUCGGUGGUUUGGAAAGGAAAGUAUUAUGUUACGCCGUUCGGAUCUGCACUUCCAG | -0.172
UCCUGUGCUACACAUCGUAUGUACCGAAUCGGCCCCCCGGCCCCCCGGGCCCCCCGGGGAAAGUAUUAUGUUACGCCGUUCGGAUCUGCA | -0.409
AGUCCUGUGCUACACAUCGUAUGUACCGAAUCGGCCCCCGGCCCCCGGGCCCCCGGGGAAAGUAUUAUGUUACGCCGUUCGGAUCUGCAC | -0.573
UGGGAGGUGGAUUUUGUUUAUUUUUUCAGCUCAUUUCCAGGGGUGGGAAUUUUUUUUUAAUAUGUGUCAUGAAUAAAGUUGUUUUUGAAA | 1.97
UAACUUUAGAGGAGGAUCUGAUGGAUAUGGCAGUGGACGUGGAUUUGGGGAUGGCUAUAAUGGGUAUGGAGGAGGACCUGGAGGUAGCAA | -0.401
UGAGAGGUGGAUUUUGUUUAUUUUUUUAGCUCAUUUCCAGGGGUGGGAAUUUUUUUUUAAUAUGUGUCAUGAAUAAAGUUGUUUUUGAAA | 1.25
CCUGUGCUACACAUCGUAUGUACCGAAUCGGCCCCCCCGGCCCCCCCGGGGCCCCCCCGGGAAAGUAUUAUGUUACGCCGUUCGGAUCUG | -0.639
AUUAUAGACUUGAUCAAAACACAGGAAAAGGCAACUCCCAGGAACUUUCCGCCACGAUUCCAGGAUGGAUAUUACAGCUGACAGCUUUUC | -0.0847
UGGGAGGUGGAUUUUGCUUAUUUUUUUAGCUCAUUUCCAGGGGUGGGAAUUUUUUUUUAAUAUGUGUCAUGAAUAAAGUUGUUUUUGAAA | 1.89
GUCCUGUGCUACACAUCGUAUGUACCGAAUCGGCCCCCCGGCCCCCCGGGGCCCCCCGGAAAGUAUUAUGUUACGCCGUUCGGAUCUGCA | -0.385
GAUCUCCGGGCUCAGUUGCAGAUUCUGGCCAACAUGGACAGCCAGCUAAAAGAGCUACAGAGUCAGCAUACCCAUUGUGCCCAGGACCUG | -0.221
CUCAAGUCCUGUGCUACACAUCGUAUGUACCGAAUCGGGGUGGGGUGGGGUGGAAAGUAUUAUGUUACGCCGUUCGGAUCUGCACUUCCA | 0.226

Series 3
Target: Phosphate system positive regulatory protein PHO4, full length, GST-tagged (PHO4, Saccharomyces cerevisiae, UniProt P07270, residues 1-312)
Method: competition protein-binding microarray
Form: double-stranded DNA, one strand shown
Medium: in vitro
Tested at: 2 µM
Notes: whole 60-bp probe, lowest competitor level
Added: Cbf1 competitor, 0.05 µM
Direction: higher = stronger binding
Constant ends, left off below: … GTCTTGATTCGCTTGACGCTGCTG
Construct (chain): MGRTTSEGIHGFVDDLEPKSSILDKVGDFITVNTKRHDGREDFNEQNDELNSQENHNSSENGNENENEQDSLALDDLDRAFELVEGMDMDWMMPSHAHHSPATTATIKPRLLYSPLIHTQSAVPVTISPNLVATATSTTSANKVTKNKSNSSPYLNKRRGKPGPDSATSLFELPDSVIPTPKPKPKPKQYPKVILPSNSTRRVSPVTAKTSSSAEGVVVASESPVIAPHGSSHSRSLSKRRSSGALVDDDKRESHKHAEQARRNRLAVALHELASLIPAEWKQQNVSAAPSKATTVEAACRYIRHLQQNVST
Strand | fluorescence intensity [a.u.]
AATACACACAACTCAAACGTGTATAAACGACTTTAT | 10800
TTCCAGTGTTTCTTATCCGTGATGGTTTAATGGTCA | 4400
TGCGCAACAACTTGCCTCGTGGGTGTATGTCTAGAA | 13300
TTATCTGTTTTAATTGGCGTGGGTAAGTGGGGTAGG | 6180
AAAGCGGTAATTTGTGTGGTGGGTGCAGATATCTAT | 4950
CTGAAAAGATTTCGGCACATGGTCTTGGGACCAGAG | 12400
TTCATTGATCGAGAGCGCGTGGAACAAATTCTAGAA | 9600
ATACGGCAGCAGCCTTTCGTGCTTTCCGCCTATTTT | 4270
CTATAATGATTCTGTCGCGTGGAACGGTTTTCCATG | 7750
CTAACGAAGGTTTGTAGTGTGGGTGACAAGCCAAGT | 5270
AAATCGTCAGTAAAGTCAGAGTAATGATTTTTCACT | 3000
CGGGGTTAAGTTTGGGCTGTGGGTGGCTTGCAGCAG | 4850
GTCTTGTCTCATTTTCACGTGGTTTTCCCCACTTCA | 12200
TAGATCCCTGTCCGTCACCTGAGTGTCCGTTTCAGG | 3040
TGCGCAACAACTTGAACTGTGGGTGTATGTCTAGAA | 4850
CTAACGAAGGTTTGTCACGTTACTTACAAGCCAAGT | 8240
CATACCCAACCTTGAAGCGTGGGTGAAGATATTTGT | 9080

Series 4
Target: Histone acetyltransferase KAT6A, winged helix 2, GST fusion (KAT6A, Homo sapiens, UniProt Q92794, residues 85-181)
Method: protein binding microarray
Form: double-stranded DNA, one strand shown
Medium: in vitro
Tested at: not given
Notes: 8-mer, flanks averaged, mean of 2 arrays, mostly near background
Reference: not given
Direction: higher = stronger binding
Residues (chain): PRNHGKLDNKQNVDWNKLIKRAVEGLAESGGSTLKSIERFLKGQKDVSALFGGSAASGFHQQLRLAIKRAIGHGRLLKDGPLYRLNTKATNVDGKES
Strand | E-score
GACGCACC | 0.0712
GCATTGGC | -0.0418
GCCCATAA | 0.00101
CTCGAAAA | 0.113
CGTTGGCC | 0.00194
ATTTTCGC | 0.0506
ACTACTTC | -0.135
GAAACACC | 0.112
AAGCTATG | 0.00129
ATTGAGCG | -0.129
CCAAGTTC | -0.105
CCAAGGAC | -0.00999
CGTCATTC | 0.0425
AACGTTAC | -0.168
ATTCCCTG | 0.0226
AGCCGCCT | 0.113
AGCACTCA | -0.0835
ACATGAGC | -0.00201
CGCATCCA | 0.0342
ACAGGGAA | -0.102
ACAGATAG | -0.133

Series 5
Target: TAR DNA-binding protein 43, full length, His tag (TARDBP, Homo sapiens, UniProt Q13148, residues 1-414)
Method: RNA Bind-n-Seq
Form: RNA
Medium: in vitro
Tested at: 20 nM
Notes: 6-mer, flanks averaged, single round
Added: 150 mM KCl
Reference: input library
Direction: higher = stronger binding
Strand | 6-mer enrichment (R)
GAGCUG | 1.35
GAGUGG | 3.64
GUGCAC | 0.935
CCAAGG | 1.14
CUGGCU | 0.742
GCGGAC | 1.53
UUAAGC | 0.612
UCCGGC | 0.83
CAAAUU | 0.615
CCAUUA | 0.586
UCUGAA | 0.63
GAGGGC | 4.88
GAAACG | 0.988
GUUUCA | 0.597
CCCGUG | 0.796
GAGCGA | 1.49
GAAAAU | 0.686
ACGCGC | 0.859
GGCCGC | 1.55
CUUACU | 0.561
UUAUGC | 0.645
